Assay results from different studies.
Numbered parts are unrelated; each lists some results of a single study.
Sequence of UniProt P22612 (whole entry, looked up): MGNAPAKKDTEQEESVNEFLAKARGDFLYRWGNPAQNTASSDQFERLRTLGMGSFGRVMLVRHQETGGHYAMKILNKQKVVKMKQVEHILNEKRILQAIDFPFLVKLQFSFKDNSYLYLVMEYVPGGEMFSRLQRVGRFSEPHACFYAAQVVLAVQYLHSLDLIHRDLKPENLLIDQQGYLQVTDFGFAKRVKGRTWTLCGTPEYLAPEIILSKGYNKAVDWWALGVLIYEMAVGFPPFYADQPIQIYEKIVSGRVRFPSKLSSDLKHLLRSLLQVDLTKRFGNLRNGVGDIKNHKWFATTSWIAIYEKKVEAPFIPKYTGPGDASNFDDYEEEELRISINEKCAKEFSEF

Block 1 — technique: RNA Bind-n-Seq; molecule type: RNA; sample: in vitro; tested at: 90 pmol; notes: 4-mer, random 30-nt RNA, single round; relative to: input library; reading: higher = stronger binding; endpoint: 4-mer enrichment
Target: Eukaryotic initiation factor 4A-I (EIF4A1, Homo sapiens, UniProt P60842, residues 1-406, full length assumed)
Sequence of UniProt P60842 (whole entry, looked up): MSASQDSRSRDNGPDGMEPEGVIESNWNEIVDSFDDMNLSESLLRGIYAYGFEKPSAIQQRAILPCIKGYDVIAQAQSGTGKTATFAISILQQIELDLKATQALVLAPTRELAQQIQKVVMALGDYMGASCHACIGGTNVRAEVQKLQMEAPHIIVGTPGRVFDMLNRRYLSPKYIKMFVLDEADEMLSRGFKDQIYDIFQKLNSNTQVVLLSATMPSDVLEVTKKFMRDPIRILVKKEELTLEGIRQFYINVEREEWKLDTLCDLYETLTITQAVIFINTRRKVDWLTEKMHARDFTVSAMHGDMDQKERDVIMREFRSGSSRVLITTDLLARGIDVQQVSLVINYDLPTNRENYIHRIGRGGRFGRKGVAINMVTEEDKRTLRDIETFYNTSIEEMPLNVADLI
Added: 3 µM iPr-DMDA-PatA, 2 mM ADP, 2 mM phosphate
AACC: 1.19 fold
CAGA: 1.17 fold
GGCA: 0.747 fold
ACAA: 1.35 fold
GCUA: 0.926 fold
GUAG: 0.952 fold
AUCU: 1.13 fold
GCCA: 0.839 fold

Block 2 — technique: EMSA with sequencing; molecule type: double-stranded DNA, one strand shown; sample: in vitro; tested at: 10 and 20 nM; relative to: negative control set to 0; reading: higher = stronger binding; endpoint: normalised bound fraction
Target: Hepatocyte nuclear factor 3-alpha (Foxa1, Mus musculus, UniProt P35582, residues 1-468, full length assumed)
Sequence of UniProt P35582 (whole entry, looked up): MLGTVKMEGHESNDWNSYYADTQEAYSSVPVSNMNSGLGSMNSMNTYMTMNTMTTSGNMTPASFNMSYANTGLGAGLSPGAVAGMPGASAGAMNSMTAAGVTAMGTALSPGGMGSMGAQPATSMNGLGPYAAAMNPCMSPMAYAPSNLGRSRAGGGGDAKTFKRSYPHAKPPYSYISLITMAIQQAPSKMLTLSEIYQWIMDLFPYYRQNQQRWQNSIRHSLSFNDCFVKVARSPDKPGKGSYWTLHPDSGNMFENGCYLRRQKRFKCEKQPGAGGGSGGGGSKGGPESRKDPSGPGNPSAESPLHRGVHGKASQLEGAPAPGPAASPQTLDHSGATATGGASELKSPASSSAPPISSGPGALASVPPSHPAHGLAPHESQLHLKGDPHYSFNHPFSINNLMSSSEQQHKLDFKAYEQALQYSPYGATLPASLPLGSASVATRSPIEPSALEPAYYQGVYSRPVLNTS
Notes: whole designed probe, mean of two concentrations, ends assumed
Constant ends, left off below: GTGAGCGGTGCCCATTGATGGGGAAC … TTTCACTGGGATCGTGGGGAC
CATTTGCCTCACACAGAGTTACAAAAGTTACACCCTGTTTTCAGAAAAACTTTCCCAATACAGGCAGAGAGTTCATGTTTATTTCATAAACCTAGATTGCTTACATGTTCCAACCATTTTACAAATACTAACTCATTAAATCCTCATAACAACTCAATGGGGTAGGTTGTATTATTACCTTCATTTTACAGGT: 0.0466 ratio
GATTTTTGGGGATTTTTGAAAATAGCCCTATGTCTTGGATATGAGTCACAAATTGCCCCCCCCCCCACCATTTCGTCATTTGTCTCCAAGCTCAGATTACATTGGAGATTGCCGTGCAGAAGTTTTTCTTTAATGTAATAAAATGTAGCCATCTTTTTTAAAATGACCTCTGGACTTCATGTGTTTGGAGTTT: 0.186 ratio
TACCAACCAAAGATTTTGAAAAGAGAGTCGGTCCTTGATGATTCAATTTCAAGGCCAAACCATCACAGGGACCACTTTGGAAGTAATATTAAGTAAACAAGCATCCTTTTAGTTAATGCTAATGGTTAGCTTGGTTTTCTGTTATGTATAGTCAAAAGGATTCTACATGATTAAGCCAGAAGTATCTATTTAG: 0.457 ratio
GTCAATTACGTGGGAAATAAAGATAAGGCAAATGCACTTGGTTCTCTGAACTATTCTGACATTAGAAGAAATGCCAAGTCAGCAGATATCTGCTGTTTACATTTCACAATAACCTAATCATGCATTTGCAGCTTTCTGGAGCAAAACACTAACTGTTCTCCAAACAGCCACCTGACAATCTAAGGCTGAAACA: 0.34 ratio
TGGCCTTCTGGCCCTATCTGCTCCGTGCCCAACCCAGCGCCCCGCACAGTCGGAGCTTTGTAAATACGAGGTGACTGTCTGCCTACAAACTTTGTAAACATCACTTGAAATGGCCGCAGGGTATTGTGACATGGCCATACCACTATTTGTTTGCTATTGAATTTGTACTTCCCTGCCTTACTTTTGCTATTGC: 0.387 ratio

Block 3 — technique: RNA Bind-n-Seq; molecule type: RNA; sample: in vitro; tested at: 1 µM; notes: whole 134-nt RNA, ends assumed; added: 150 mM KCl; relative to: input library; reading: higher = stronger binding; endpoint: log2 enrichment
Target: Ras GTPase-activating protein-binding protein 1, C-terminal RGG region (G3BP1, Homo sapiens, UniProt Q13283)
Sequence of UniProt Q13283 (whole entry, looked up): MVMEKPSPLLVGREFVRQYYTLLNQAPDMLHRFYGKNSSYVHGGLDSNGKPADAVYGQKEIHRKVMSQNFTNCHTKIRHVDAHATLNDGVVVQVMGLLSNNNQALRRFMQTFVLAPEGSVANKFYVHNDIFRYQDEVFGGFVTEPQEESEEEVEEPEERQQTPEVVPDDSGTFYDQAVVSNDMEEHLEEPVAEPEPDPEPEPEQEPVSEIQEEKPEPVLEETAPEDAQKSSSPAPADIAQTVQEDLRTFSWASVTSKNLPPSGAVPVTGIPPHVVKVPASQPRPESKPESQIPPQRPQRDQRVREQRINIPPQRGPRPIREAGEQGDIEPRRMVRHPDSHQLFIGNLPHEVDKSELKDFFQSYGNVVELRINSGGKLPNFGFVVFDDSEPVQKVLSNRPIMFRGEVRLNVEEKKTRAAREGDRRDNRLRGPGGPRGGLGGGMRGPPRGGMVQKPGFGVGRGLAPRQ
Constant ends, left off below: GGGAGUUCUACAGUCCGACGAUC … UGGAAUUCUCGGGUGUCAAGG
CCUGUGCUACACAUCGUAUGUACCGAAUCGGGGCCCCCCGGGCCCCCCGGGGCCCCCCGGAAAGUAUUAUGUUACGCCGUUCGGAUCUGC: -1.97
AGAGAAAAGGAACAGUUCCGUAAGCUCUUUAUUGGUGGCUUAAGCUUUGAAACCACAGAAGAAAGUUUGAGGAACUACUACGAACAAUGG: -2.48
UGGCCCUGGUGGCAUGCGGGGAGGAAGAUGUGGCCUCAUGGAUCGUGGUGGUCCCGGUGGAAUGUUCAGAGGUGGCCGUGGUGGAGACAG: 1.89
AAGUCCUGUGCUACACAUCGUAUGUACCGAAUCGGGUUUUGGUUUUGGGGUUUUGGGAAAGUAUUAUGUUACGCCGUUCGGAUCUGCACU: -0.964
UGGCCCUGGUGGCAUGCGGGGAGCAAGAGGUGGCCUCAUGGAUCGUGGUGGUCCCGGUGGAAUGUUCAGAGGUGGCCGUGGUGGAGACAG: 2.27
CUGUGCUACACAUCGUAUGUACCGAAUCGGGGUUUUUGGGGUUUUUUUGGGGAAAAAGGGGAAAGUAUUAUGUUACGCCGUUCGGAUCUG: -0.164
CCUGUGCUACACAUCGUAUGUACCGAAUCGGAAAAAAAGGGAAAAAAAGGGAAAAAAAGGGAAAGUAUUAUGUUACGCCGUUCGGAUCUG: -1.92
UGGCCCUGGUGGCAUGCGGGGAGGAAGAGGUGGCCUCAUGGAUCGUUGUGGUCCCGGUGGAAUGUUCAGAGGUGGCCGUGGUGGAGACAG: 2.44

Other studies, line by line
Cc1cncc2cccc(S(=O)(=O)N3CCCN(C(=O)CN)C[C@@H]3C)c12  remaining activity (cAMP-dependent protein kinase catalytic subunit gamma (PRKACG, Homo sapiens, UniProt P22612); enzyme activity, inhibitor; 0.5 µM; relative to: control): 112%

Excerpt of the above (block 1):
CAGA: 1.17 fold
GGCA: 0.747 fold
ACAA: 1.35 fold
